# Measurements of several laboratories.
# Numbered parts are unrelated; each lists some results of a single study.

# Set 1 — method: protein-binding microarray; molecule type: double-stranded DNA, one strand shown; medium: in vitro; tested at: not given; reading: higher = stronger binding
# Target: Protein C-ets-1 (ETS1, Homo sapiens, UniProt P14921, residues 1-441, K379A, full length assumed)
# Notes: k-mer, scored over probes, only values ≥0.25
# Construct (chain): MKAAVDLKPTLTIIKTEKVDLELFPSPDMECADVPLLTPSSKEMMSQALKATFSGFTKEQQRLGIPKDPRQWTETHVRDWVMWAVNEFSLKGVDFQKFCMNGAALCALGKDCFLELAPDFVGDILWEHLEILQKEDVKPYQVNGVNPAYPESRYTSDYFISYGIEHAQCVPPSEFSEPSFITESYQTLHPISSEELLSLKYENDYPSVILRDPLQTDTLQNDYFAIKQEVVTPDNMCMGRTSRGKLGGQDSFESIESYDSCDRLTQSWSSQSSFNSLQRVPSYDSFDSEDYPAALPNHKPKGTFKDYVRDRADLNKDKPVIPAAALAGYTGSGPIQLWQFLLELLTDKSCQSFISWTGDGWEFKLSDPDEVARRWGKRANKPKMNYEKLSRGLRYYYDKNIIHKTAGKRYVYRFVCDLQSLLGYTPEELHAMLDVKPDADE
Sequence,E-score
TACCGGCA,0.412
CCGTCGCC,0.323
AATATATA,0.257

# Set 2 — method: protein binding microarray; molecule type: double-stranded DNA, one strand shown; medium: in vitro; tested at: not given; relative to: not given; reading: higher = stronger binding
# Target: Histone acetyltransferase KAT6A, both winged helices, GST fusion (KAT6A, Homo sapiens, UniProt Q92794, residues 1-181)
# Notes: 8-mer, flanks averaged, mean of 2 arrays, mostly near background
# Target sequence (chain): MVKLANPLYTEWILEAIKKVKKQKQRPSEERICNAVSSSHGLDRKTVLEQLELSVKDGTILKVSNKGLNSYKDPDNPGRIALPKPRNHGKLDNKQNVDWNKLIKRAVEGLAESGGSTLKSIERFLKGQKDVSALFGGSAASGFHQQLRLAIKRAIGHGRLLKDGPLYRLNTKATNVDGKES
Sequence,E-score
CACCCTCA,-0.285
AATAACGC,0.0386
ACTAGGAA,-0.173
GATCACAA,-0.123
AACCATGA,-0.0112

# Set 3 — method: universal PBM; molecule type: double-stranded DNA, one strand shown; medium: in vitro; tested at: 600 nM; reading: higher = stronger binding
# Target: Sal-like protein 4, full length isoform A (SALL4, Homo sapiens, UniProt Q9UJQ4, residues 1-1053)
# Sequence of UniProt Q9UJQ4 (whole entry, looked up): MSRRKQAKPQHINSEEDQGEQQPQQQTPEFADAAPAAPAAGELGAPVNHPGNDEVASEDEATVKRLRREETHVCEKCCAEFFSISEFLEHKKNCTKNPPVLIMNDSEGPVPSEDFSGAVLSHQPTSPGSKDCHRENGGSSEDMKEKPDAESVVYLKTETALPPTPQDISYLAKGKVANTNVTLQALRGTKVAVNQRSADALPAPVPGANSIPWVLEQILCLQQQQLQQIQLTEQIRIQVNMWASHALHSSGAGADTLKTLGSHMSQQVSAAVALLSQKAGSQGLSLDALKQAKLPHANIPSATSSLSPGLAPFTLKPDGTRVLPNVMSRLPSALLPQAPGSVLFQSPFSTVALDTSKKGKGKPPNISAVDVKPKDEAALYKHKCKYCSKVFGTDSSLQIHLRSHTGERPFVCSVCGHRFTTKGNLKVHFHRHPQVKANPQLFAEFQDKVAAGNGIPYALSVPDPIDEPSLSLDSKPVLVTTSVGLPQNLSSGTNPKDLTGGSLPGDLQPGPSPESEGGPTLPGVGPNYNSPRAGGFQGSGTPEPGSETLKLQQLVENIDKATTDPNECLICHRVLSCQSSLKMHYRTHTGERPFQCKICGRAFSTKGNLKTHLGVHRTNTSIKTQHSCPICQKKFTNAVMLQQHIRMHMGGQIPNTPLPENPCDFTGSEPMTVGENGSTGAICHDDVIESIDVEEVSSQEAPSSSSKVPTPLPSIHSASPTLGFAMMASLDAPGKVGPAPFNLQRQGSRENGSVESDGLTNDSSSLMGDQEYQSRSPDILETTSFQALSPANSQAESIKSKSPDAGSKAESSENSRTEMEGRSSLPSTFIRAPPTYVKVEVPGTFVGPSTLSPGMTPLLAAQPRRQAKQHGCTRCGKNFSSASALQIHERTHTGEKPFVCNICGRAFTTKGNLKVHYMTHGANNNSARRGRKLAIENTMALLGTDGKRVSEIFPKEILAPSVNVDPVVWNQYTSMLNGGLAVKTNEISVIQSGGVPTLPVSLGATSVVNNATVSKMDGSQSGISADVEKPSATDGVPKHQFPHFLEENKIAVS
# Notes: 8-mer, flanks averaged, mean of replicates
Sequence,E-score
ACGCAGGA,-0.14
ACGTCGTA,-0.0886
CTTTGAAA,0.315
GTAATAAA,0.402

# Mixed results
Molecule,target,test,system,conditions,how to read,quantity,value
"PhoQ, residues 284 288 289 292 302 303 AEGLLW","PhoP, residues 12 14 15 18 19 AGCRL (Escherichia coli, UniProt P23836)","Sort-seq, refers to: YFP reporter",E. coli,"PhoQ-PhoP variant library, with: 10 µM Mg2+","relative to: high Mg2+ state, higher = stronger signaling",fold induction,9.13

# Excerpt of the above (set 1):
Sequence,E-score
CCGTCGCC,0.323
